Results pooled from the literature.
Numbered parts are unrelated; each lists some results of a single study. Values joined by “and” are separate records of one study, mostly repeats; a detail may differ.

Sample 1
Organism: SARS-CoV-2
Effect on: cytopathic effect
Cells: Vero E6
Tested at: 10 µM
`O=[N+]([O-])c1ccc(O)c2ncccc12` gave an inhibition of 6.3%.
With `CCC(C)SSc1ncc[nH]1` (centres unmarked) the inhibition was -0.7%.
`O=c1sn(-c2cccc3ccccc23)c(=O)n1Cc1ccccc1` gave an inhibition of -3.5% and -6.7%.

Sample 2
Cell line: HEK-293T
Effect on: pseudovirus infection
Method: FDA-approved drug library screen
Organism: VSV pseudotyped with SARS-CoV-2 spike
Tested at: 10 µM
Time: 16 h
Reference: vehicle-treated
With `CC1(C)O[C@@H]2C[C@H]3[C@@H]4CCC5=CC(=O)C=C[C@]5(C)[C@H]4[C@@H](O)C[C@]3(C)[C@]2(C(=O)CO)O1` the GFP-positive cells was 89.7%.
The GFP-positive cells of `O=C1CCc2cc(OCCCCc3nnnn3C3CCCCC3)ccc2N1` is reported as 91%.
For `Oc1cc(Cl)ccc1Oc1ccc(Cl)cc1Cl`, the GFP-positive cells was 86.2%.

Sample 3
Target: Protein max, full length (MAX, Homo sapiens, UniProt P61244-2, residues 1-151)
Method: protein-binding microarray
Form: double-stranded DNA, one strand shown
Sample: in vitro
Tested at: not given
Notes: k-mer, scored over probes, only values ≥0.25
Direction: higher = stronger binding
`CATGGTCC` gave an E-score of 0.337.
With `CATGCGGC` the E-score was 0.435.
`ATGACACG` gave an E-score of 0.37.
The E-score of `CCCACACG` is reported as 0.35.

Sample 4
Target: Histone acetyltransferase KAT6A, winged helix 2, GST fusion (KAT6A, Homo sapiens, UniProt Q92794, residues 85-181)
Method: protein binding microarray
Form: double-stranded DNA, one strand shown
Sample: in vitro
Tested at: not given
Notes: 8-mer, flanks averaged, mean of 2 arrays, mostly near background
Reference: not given
Direction: higher = stronger binding
Construct (chain): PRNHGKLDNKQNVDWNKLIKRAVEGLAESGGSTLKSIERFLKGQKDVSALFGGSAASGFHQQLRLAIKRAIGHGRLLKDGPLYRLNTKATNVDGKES
`CTCCAACA` gave an E-score of 0.117.
`TACTGGCA` gave an E-score of -0.199.
With `GAACCTGC` the E-score was 0.212.
`ATGTGCAC` has an E-score of -0.244.
`AGCAGGGA` has an E-score of -0.053.
With `CAGACTAA` the E-score was -0.0197.
`CAGCAAGC` has an E-score of -0.157.
`GAGCCTGC` gave an E-score of 0.1.

Sample 5
Target: Interferon regulatory factor 7, full length, phosphomimetic (IRF7, Homo sapiens, UniProt Q92985, residues 1-503, S101K/S471D/S472D/S475D/S476D/S477D/S483D/S484D/S487D)
Sequence of UniProt Q92985 (whole entry, unmodified, looked up): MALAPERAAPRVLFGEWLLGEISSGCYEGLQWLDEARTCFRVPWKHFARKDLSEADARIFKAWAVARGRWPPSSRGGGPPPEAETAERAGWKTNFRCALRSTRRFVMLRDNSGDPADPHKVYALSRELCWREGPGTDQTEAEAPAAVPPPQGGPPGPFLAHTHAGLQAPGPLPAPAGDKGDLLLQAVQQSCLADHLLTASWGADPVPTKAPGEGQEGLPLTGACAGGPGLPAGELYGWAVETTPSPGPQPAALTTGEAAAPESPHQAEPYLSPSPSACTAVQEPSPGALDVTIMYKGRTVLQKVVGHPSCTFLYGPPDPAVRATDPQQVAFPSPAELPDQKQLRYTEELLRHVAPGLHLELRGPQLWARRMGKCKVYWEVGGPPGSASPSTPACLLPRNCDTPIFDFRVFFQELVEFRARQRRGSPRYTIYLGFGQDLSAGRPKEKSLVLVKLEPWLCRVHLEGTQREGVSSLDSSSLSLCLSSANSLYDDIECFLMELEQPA
Method: protein-binding microarray
Form: double-stranded DNA, one strand shown
Sample: in vitro
Tested at: 250 nM
Notes: 60-bp whole probe
Added: salmon DNA 0.4 mg/ml
Reference: random background probes
Direction: higher = stronger binding
Shared flanks, not repeated: GCCTAGCAC … GTCTTGATTCGCTTGACGCTGCTG
`TTAGGACTGGGGTTTCGGTTCGTGCTA` has a log fluorescence of 9.09 z-score.
The log fluorescence of `TTAGATTTCGGTTCCGGTTAGTGCTAG` is reported as 4.83 z-score.
With `AACCACATAGGAAGAACAACGTGCTAG` the log fluorescence was -0.125 z-score.
The log fluorescence of `GACGATCTCAGTCTCGTGACGTGCTAG` is reported as 0.0162 z-score.
`GACGGTTTCGACTTTCGGGAGGTGCTA` has a log fluorescence of 10.8 z-score.
`TTAGATTTGAGACTGGATTAGTGCTAG` gave a log fluorescence of 0.0323 z-score.
`TTAGGATTCGACACTGGGTTAGTGCTA` gave a log fluorescence of 0.0845 z-score.
`GACGGTTTCCTTATCCTAACGTGCTAG` gave a log fluorescence of 3.68 z-score.

Sample 6
Target: Replicase polyprotein 1ab, nsp13 helicase (rep, Severe acute respiratory syndrome coronavirus 2, UniProt P0DTD1)
Action: inhibitor
Tested at: 20 µM
`CCCCNc1c(C(=O)OCC)c(C)nc2c1cnn2CC` gave an inhibition of 3.14%.
`O=C(CCCN1CCC2(CC1)C(=O)N(Cc1cccc(F)c1)CN2c1ccccc1)c1ccc(F)cc1` has an inhibition of 7.3%.
`CC[C@H]1OC(=O)C[C@@H](O)[C@H](C)[C@@H](O[C@@H]2O[C@H](C)[C@@H](O[C@H]3C[C@@](C)(O)[C@@H](O)[C@H](C)O3)[C@H](N(C)C)[C@H]2O)[C@@H](CC=O)C[C@@H](C)C(=O)/C=C/C(C)=C/[C@@H]1CO[C@@H]1O[C@H](C)[C@@H](O)[C@@H](OC)[C@H]1OC` gave an inhibition of 8.58%.
`O=C(NCCO[N+](=O)[O-])c1cccnc1` gave an inhibition of 0.2%.
The inhibition of `CCC[C@@]1(CCc2ccccc2)CC(O)=C([C@H](CC)c2cccc(NS(=O)(=O)c3ccc(C(F)(F)F)cn3)c2)C(=O)O1` is reported as 7.91%.
With `COc1ccc(C2CC(c3ccccc3)=NN2c2ccc(S(N)(=O)=O)cc2)cc1` (centres unmarked) the inhibition was 4.06%.
With `O=C(Nc1ccccc1)N1CCC(Cc2cnc3ccccc3c2)CC1` the inhibition was 2.36%.
`CCCOc1ccn2c(C(C)=O)cc(-c3ccccc3S(C)(=O)=O)c2c1` has an inhibition of 1.73%.
The inhibition of `COc1ccc(/C=C/CCCCOc2ccc(C(=O)c3cccc(C(=O)O)c3)cc2CCC(=O)O)cc1` is reported as 13.4%.
`O=C(Nc1cccc2c(=O)cc(-c3nnn[nH]3)oc12)c1ccc(OCCCCc2ccccc2)cc1` has an inhibition of 12.1%.
With `CCN(CC)CCNC(=O)c1ccc(N)cc1` the inhibition was 1.87%.
The inhibition of `CC(C)(C)C1CCc2c(sc(NC(=O)c3ccco3)c2C(=O)O)C1` (centres unmarked) is reported as 0.65%.
`O=C1NC(=O)/C(=C/c2ccc3c(c2)OC(F)(F)O3)S1` gave an inhibition of 2.48%.
The inhibition of `CS(=O)(=O)CCNCc1nc(-c2ccc3ncnc(Nc4ccc(OCc5cccc(F)c5)c(Cl)c4)c3c2)cs1` is reported as 0.83%.
`CC1CCN(CC[C@H]2CCCN2S(=O)(=O)c2cccc(O)c2)CC1` has an inhibition of 5.72%.
`C=CCN1CC[C@]2(C)c3cc(O)ccc3C[C@@H]1[C@@H]2C` gave an inhibition of 7.89%.
For `C=C1/C(=C\C=C2/CCC[C@]3(C)[C@@H]([C@H](C)OCCC(C)(C)O)CC[C@@H]23)C[C@@H](O)C[C@@H]1O`, the inhibition was -0.7%.
The inhibition of `NCCC(=O)N[C@@H](Cc1c[nH]cn1)C(=O)O` is reported as 29%.
`C[C@H](N)C(=O)N[C@@H](CCC(N)=O)C(=O)O` has an inhibition of -2.77%.
For `CCCCOc1c(C(=O)c2c(F)cc(C)cc2F)c[nH]c2nncc1-2`, the inhibition was 7.38%.
For `O=C(O)c1ccc2c(c1)nc(Nc1cccc(Cl)c1)c1ccncc12`, the inhibition was 9.62%.

Repeated from above (sample 4):
`TACTGGCA` gave an E-score of -0.199.
With `GAACCTGC` the E-score was 0.212.
`ATGTGCAC` has an E-score of -0.244.
`AGCAGGGA` has an E-score of -0.053.
